Experimental data of several laboratories.
Parts stem from different laboratories: compare values within a part only. Positions count from the first letter of the parent shown.
Chain of UniProt O15294 (whole entry, looked up): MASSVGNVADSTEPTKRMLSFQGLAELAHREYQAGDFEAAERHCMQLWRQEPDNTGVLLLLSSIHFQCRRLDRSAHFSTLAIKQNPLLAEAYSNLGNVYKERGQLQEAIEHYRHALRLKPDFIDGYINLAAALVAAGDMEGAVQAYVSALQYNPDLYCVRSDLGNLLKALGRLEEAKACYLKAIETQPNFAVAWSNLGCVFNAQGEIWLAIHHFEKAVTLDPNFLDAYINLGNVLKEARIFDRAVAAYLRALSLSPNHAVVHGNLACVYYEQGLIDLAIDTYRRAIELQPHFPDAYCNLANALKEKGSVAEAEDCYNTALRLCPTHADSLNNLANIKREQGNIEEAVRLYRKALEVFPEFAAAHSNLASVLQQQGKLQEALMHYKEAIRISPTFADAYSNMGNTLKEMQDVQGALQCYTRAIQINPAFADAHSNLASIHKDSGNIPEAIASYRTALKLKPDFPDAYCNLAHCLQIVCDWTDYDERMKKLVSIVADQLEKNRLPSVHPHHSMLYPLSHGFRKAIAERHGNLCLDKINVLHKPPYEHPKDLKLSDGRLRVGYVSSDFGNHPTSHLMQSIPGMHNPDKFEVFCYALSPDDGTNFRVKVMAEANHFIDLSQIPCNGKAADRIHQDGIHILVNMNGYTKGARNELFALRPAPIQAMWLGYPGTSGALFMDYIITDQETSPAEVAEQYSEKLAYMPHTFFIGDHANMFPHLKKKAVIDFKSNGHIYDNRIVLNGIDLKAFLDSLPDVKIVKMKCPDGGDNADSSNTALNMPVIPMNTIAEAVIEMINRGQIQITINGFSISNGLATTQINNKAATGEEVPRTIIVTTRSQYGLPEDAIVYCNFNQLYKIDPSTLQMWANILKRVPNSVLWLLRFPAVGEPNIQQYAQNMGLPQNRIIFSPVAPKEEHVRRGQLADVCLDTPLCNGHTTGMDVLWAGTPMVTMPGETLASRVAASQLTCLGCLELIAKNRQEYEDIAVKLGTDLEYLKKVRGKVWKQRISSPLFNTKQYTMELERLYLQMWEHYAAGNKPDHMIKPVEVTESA

Set 1
Target: Interferon regulatory factor 7, full length, phosphomimetic (IRF7, Homo sapiens, UniProt Q92985, residues 1-503, S101K/S471D/S472D/S475D/S476D/S477D/S483D/S484D/S487D)
Chain of UniProt Q92985 (whole entry, unmodified, looked up): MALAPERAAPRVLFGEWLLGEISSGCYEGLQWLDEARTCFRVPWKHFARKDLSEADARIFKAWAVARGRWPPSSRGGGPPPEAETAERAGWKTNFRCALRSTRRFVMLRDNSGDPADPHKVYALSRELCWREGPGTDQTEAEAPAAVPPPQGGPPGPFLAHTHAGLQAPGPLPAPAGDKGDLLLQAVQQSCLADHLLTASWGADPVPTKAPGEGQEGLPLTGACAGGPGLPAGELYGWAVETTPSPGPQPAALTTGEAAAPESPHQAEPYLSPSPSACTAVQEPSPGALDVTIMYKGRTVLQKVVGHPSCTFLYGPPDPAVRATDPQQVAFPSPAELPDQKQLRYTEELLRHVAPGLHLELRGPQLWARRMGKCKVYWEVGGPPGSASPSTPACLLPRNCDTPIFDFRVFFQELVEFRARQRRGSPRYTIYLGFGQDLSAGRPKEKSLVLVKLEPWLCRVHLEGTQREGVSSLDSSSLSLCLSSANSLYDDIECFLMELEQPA
Technique: protein-binding microarray
Form: double-stranded DNA, one strand shown
Sample: in vitro
Tested at: 250 nM
Notes: 60-bp whole probe
Added: salmon DNA 0.4 mg/ml
Relative to: random background probes
Reading: higher = stronger binding
All sequences stand within: GCCTAGCAC … GTCTTGATTCGCTTGACGCTGCTG
Sequence	log fluorescence
CAGAGCCTCAGTCCTCACACAGTGCTA	-0.717 z-score
TCACTTTACACACATCATACTGTGCTA	1.39 z-score
TTAGGTCTCGGTCTCCGTTAGTGCTAG	1.72 z-score
TCATGGTTGAACATGAAACTGTGCTAG	0.118 z-score
TTAGGTCTCGGACTGGGTTTGTGCTAG	0.31 z-score
TTCGGACTGGACTTTCGGTTAGTGCTA	0.348 z-score
AGATGTATGAGCCTCTGTTTGTGCTAG	-0.272 z-score
TCAGTTCTGGGAAATATTACTGTGCTA	0.215 z-score

Set 2
Target: TAR DNA-binding protein 43, full length, His tag (TARDBP, Homo sapiens, UniProt Q13148, residues 1-414)
Technique: RNA Bind-n-Seq
Form: RNA
Sample: in vitro
Tested at: 20 nM
Notes: 6-mer, flanks averaged, single round
Added: 150 mM LiCl
Relative to: input library
Reading: higher = stronger binding
Sequence	6-mer enrichment (R)
AUCCAG	0.847
AUAUCC	0.863
GGGGAG	1.42
CUAGGG	0.981
AGUGGC	1.07
UGCCCG	1.01
AGUUAA	0.924
AGUGCA	1

Set 3
Target: CCND1, cyclin fold, Cln2 fusion (human)
Technique: yeast growth competition, sequencing
Sample: yeast
Notes: strong parent motif
Relative to: not given
Reading: higher = stronger binding
Starting sequence: SCAPER docking peptide (human); SNARRSLNFGGST
Change	normalised enrichment score
SNARRSLAFGGST [N8A]	0.0633
SNARRSLNFGNST [G11N]	0.766
SNARRVLNFGGST [S6V]	2.43
SNARRSLNAGGST [F9A]	-0.0612
SHARRSLNFGGST [N2H]	0.715
SNARRSPNFGGST [L7P]	-0.000774
SNARRSLMFGGST [N8M]	0.579
SNARRSLGFGGST [N8G]	0.149

Other studies, line by line
Sequence	target	observed	technique	form	relative to	measurement	value
QNYRPFYMINISSGS	UDP-N-acetylglucosamine--peptide N-acetylglucosaminyltransferase 110 kDa subunit (OGT, Homo sapiens, UniProt O15294)	binding	phage display NGS	peptide	input library	minimum log2 enrichment ratio	1.69

Excerpt of the above (set 1):
Sequence	log fluorescence
TTAGGTCTCGGACTGGGTTTGTGCTAG	0.31 z-score
TTCGGACTGGACTTTCGGTTAGTGCTA	0.348 z-score
AGATGTATGAGCCTCTGTTTGTGCTAG	-0.272 z-score
TCAGTTCTGGGAAATATTACTGTGCTA	0.215 z-score
